Results pooled from the literature.
Each numbered part is a random draw from the data of one study; scales do not carry over between parts. Changes are numbered by the printed parent chain.
UniProt O15294, sequence (whole entry, looked up): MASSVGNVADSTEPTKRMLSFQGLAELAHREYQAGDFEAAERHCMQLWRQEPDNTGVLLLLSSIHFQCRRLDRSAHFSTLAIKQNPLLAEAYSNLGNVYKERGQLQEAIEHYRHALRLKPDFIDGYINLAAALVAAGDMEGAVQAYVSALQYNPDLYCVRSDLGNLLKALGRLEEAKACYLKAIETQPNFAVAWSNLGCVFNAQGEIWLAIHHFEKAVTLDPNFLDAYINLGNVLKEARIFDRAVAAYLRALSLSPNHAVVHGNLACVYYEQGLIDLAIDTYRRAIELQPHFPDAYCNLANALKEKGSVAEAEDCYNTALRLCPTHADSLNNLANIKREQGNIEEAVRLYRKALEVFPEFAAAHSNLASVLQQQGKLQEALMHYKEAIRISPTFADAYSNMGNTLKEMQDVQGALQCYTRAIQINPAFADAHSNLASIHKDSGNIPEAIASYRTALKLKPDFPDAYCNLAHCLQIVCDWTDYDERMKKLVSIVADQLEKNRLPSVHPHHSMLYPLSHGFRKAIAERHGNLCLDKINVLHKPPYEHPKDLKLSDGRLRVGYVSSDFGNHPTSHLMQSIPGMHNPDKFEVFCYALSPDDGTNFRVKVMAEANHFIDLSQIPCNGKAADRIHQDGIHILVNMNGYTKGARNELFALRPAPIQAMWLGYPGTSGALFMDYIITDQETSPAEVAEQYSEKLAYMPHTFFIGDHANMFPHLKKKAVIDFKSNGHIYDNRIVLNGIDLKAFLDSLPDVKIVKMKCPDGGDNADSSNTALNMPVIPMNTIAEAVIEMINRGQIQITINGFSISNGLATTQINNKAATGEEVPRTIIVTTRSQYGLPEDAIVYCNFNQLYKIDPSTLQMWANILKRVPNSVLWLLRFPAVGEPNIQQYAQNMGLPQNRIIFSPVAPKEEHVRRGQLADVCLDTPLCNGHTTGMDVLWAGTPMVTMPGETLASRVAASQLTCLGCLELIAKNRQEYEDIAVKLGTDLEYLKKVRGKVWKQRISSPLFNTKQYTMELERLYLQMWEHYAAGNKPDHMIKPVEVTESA

Set 1
Target: RNA binding protein fox-1 homolog 2, RRM domain, GST-SBP tag (RBFOX2, Homo sapiens, UniProt O43251-10, residues 100-194)
Technique: RNA Bind-n-Seq
Form: RNA
Sample: in vitro
Concentration: 365 nM
Notes: natural RNA segment, single round, ends assumed
Baseline: no-protein control
Reading: higher = stronger binding
All sequences stand within: GGGAGUUCUACAGUCCGACGAUC … UGGAAUUCUCGGGUGCCAA
Residues (chain): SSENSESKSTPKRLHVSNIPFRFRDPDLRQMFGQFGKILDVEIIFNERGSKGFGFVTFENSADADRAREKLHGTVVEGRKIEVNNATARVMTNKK
| Oligonucleotide | RBNS enrichment (R) |
| --- | --- |
| UUGGAGUCAGACAGGCCUGGCACAGGCACUGGAGCUACUGAAUGAAGCUCUAGCUUAGCCUUCUCAGUAAGGUGUAAGAAGCUGGUGUUGCUGUGUAGUGUUAAUUUAUU | 0.631 |
| CAGGUGGAGCUUCAGUUAGUACCCGAGGGAUUCCCCUGGCACAAGCAUUAUAGGAAUUAGUCCACCACUGGCGUGGGUGAGCAGCCAGGUAAUGGGAAUUGAUCAGUGCC | 1.21 |
| AGUACUGAAGCAUAUAAUGAAAGUAAUUGCUAAGUAGCAGCUUAAAAAUUCAAUUAUCCGAUUGUAUUUAACAUCUUUAAGAGCAUGAUCAUAAAGAGCUAUUUUUGACA | 6.04 |
| GACAGUUUUGAAAGACAUUAAUUCUCAUUUUCUUCUAGUCAGGAGUAAUACAAGCAAACAAGUGUCCGUUUUGAAUUCUGAUUUGUAAUCUGAAUACUAAACAUAUUAGA | 0.303 |
| UCCUGUGUUUAGAUGCUUUAAUGUUCAUAAAGCCUGUCUUGUGACUGGACUGUCAGCUGUCCAACUGUCCCUGUUGUAAGUGCUAUUAACUAUCUCAGUUACCAGAAUCU | 0.615 |
| UGUACAGCGGCUUGGCCUCUCACGAUCCAUUGUAUGGCUUUAUAAAUGAUAAAGUUACACAAACCCACCUGUGGCCUGGCUUCGUUUGGGCUCUGCUGGGGGUCUUCAAG | 0.177 |
| UGGAACAGAGUCCCCAGAACUCAUGUGGCCAUUUCCGCCAGCAUCACUCCCCGGUGCCUAUGGGGUCCCGGUGUACCUAAAGGGAGAAGGACCCCAUGUGCUAGCCAGAA | 0.323 |
| CCUCCAGGGGGGACUCCUCCCCACUCCCUCAGCCCUGGGGCCCCCCUAUCCUAAGACUCGGAAAGGCCCACCCUGAGGUUCUAUUGCCUUCCUGGUGGUAUCAGCUUCCA | 0.466 |

Set 2
Target: CRIPT, C-terminal peptide
Technique: DHFR complementation, deep sequencing
Sample: yeast
Notes: single substitutions, model-inferred values
Baseline: wild type
Reading: higher = weaker binding
Starting sequence: ERBIN, PDZ domain 1 (human); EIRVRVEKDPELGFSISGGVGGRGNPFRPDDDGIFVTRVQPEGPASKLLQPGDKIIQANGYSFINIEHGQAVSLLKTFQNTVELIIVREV; partner TKNYKQTSV
| Variant | binding free energy change [kJ/mol] |
| --- | --- |
| L12S | 5.48 |
| G18S | 6.19 |
| D9W | 1.52 |
| N25P | 2.46 |
| E83W | 0.671 |
| V39K | 4.51 |
| D53A | 3.69 |
| I56H | 0.813 |

Set 3
Target: Histone acetyltransferase KAT6A, both winged helices, GST fusion (KAT6A, Homo sapiens, UniProt Q92794, residues 1-181)
Technique: protein binding microarray
Form: double-stranded DNA, one strand shown
Sample: in vitro
Concentration: not given
Notes: 8-mer, flanks averaged, mean of 2 arrays, mostly near background
Baseline: not given
Reading: higher = stronger binding
Construct (chain): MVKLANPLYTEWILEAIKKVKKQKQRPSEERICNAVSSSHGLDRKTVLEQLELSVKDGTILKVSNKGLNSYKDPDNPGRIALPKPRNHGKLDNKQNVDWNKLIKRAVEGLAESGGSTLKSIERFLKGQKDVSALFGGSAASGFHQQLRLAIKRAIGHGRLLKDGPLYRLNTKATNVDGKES
| Oligonucleotide | E-score |
| --- | --- |
| CGTCCAGA | 0.104 |
| CTAATGCC | -0.00199 |
| GAGGAGTA | -0.185 |
| CATGTAAG | -0.004 |
| GATGTAGA | -0.0814 |
| CCACTCAC | -0.143 |
| CCAATCGC | -0.0436 |
| CGCTCTGC | 0.123 |

Other studies, line by line
| Sequence | target | test | test system | setting | scale | measurement | value |
| --- | --- | --- | --- | --- | --- | --- | --- |
| RPITSAYQPSYQIVL | UDP-N-acetylglucosamine--peptide N-acetylglucosaminyltransferase 110 kDa subunit (OGT, Homo sapiens, UniProt O15294) | binding, phage display NGS | peptide | concentration not given | baseline: input library | enrichment fold change | 2.08 |

Repeated from above (set 3):
| Oligonucleotide | E-score |
| --- | --- |
| CCACTCAC | -0.143 |
| CCAATCGC | -0.0436 |
